Experimental data of several laboratories.
± gives the spread as reported.
OPG122: mRNA-decapping protein OPG122 (OPG122, Vaccinia virus, UniProt P04312)
rep papain-like protease: Replicase polyprotein 1ab, papain-like protease (rep, Severe acute respiratory syndrome coronavirus 2, UniProt P0DTD1)
rep nsp12 with nsp14/nsp10: Replicase polyprotein 1ab, nsp12 with nsp14/nsp10 (rep, Severe acute respiratory syndrome coronavirus 2, UniProt P0DTD1)

| SMILES | target | assay | test system | conditions | quantity | value |
| --- | --- | --- | --- | --- | --- | --- |
| C[n+]1cn(C2OC(COP(=O)(O)OP(=O)(O)OP(=O)(O)O)C(O)C2O)c2nc(N)[nH]c(=O)c21 (stereo not shown) | OPG122 | – | – | – | Ki | 10 nM |
| Cc1ccc(OCCN(C)C)cc1C(=O)N[C@H](C)c1cc(-c2cnn(CF)c2)cc(-c2ccn(C)n2)c1 | rep papain-like protease | protease activity, inhibitor, FlipGFP | SARS-CoV-2 | – | EC50 | 2700 ± 600 nM |
| CC(C)C[C@@H]1NC(=O)[C@H](CCCNC(=N)N)NC(=O)[C@@H]2CCCN2C(=O)[C@@H]2CSSC[C@H](NC(=O)CNC(=O)[C@@H]3CCCN3C(=O)[C@H](CCCCN)NC(=O)[C@H](CC(=O)O)NC(=O)[C@@H](NC(=O)CN)C(C)C)C(=O)N[C@@H](CCCNC(=N)N)C(=O)N[C@@H](Cc3ccc(O)cc3)C(=O)N[C@@H](CC(C)C)C(=O)N[C@@H](Cc3ccccc3)C(=O)NCC(=O)NCC(=O)N[C@H]3CSSC[C@H](NC(=O)CNC1=O)C(=O)N[C@@H](CCCCN)C(=O)NCC(=O)N[C@@H](CCCCN)C(=O)NCC(=O)N[C@@H](Cc1c[nH]cn1)C(=O)N[C@@H](CC(=O)O)C(=O)N[C@@H](Cc1ccc(O)cc1)C(=O)N[C@H](C(=O)N[C@@H](C)C(=O)N[C@@H](Cc1c[nH]c4ccccc14)C(=O)N[C@@H](CC(=O)O)C(=O)NCC(=O)N[C@H](C(=O)N[C@@H](Cc1ccccc1)C(=O)N[C@@H](CO)C(=O)N[C@@H](CC(=O)O)C(=O)O)[C@@H](C)O)CSSC[C@H](NC(=O)[C@H](CC(=O)O)NC(=O)[C@H](CC(=O)O)NC(=O)[C@H](CC(=O)O)NC(=O)[C@H](CO)NC(=O)[C@H](CCCCN)NC3=O)C(=O)N2 | Potassium voltage-gated channel subfamily B member 1 (KCNB1, Homo sapiens, UniProt Q14721) | potassium current, inhibitor, automated patch clamp | tsA201 | – | IC50 | 400 ± 10 nM |
| Nc1nc2c(nc(O)n2C2OC(COP(=O)(O)OP(=O)(O)OP(=O)(O)O)C(O)C2O)c(=O)[nH]1 (stereo not shown) | OPG122 | inhibitor | – | – | Ki | > 800 nM |
| O=C(CSc1c[nH]c2ccccc12)NCc1ccc(Cl)c(Cl)c1 | rep nsp12 with nsp14/nsp10 | RdRp reporter activity, inhibitor, Gaussia luciferase reporter | HEK293T | 24 h, with: nsp7, nsp8, nsp10, nsp14 | EC50 | 2890 nM |
| CCOC(=O)C=CC(CC1CCNC1=O)NC(=O)C(CC(C)C)NC(=O)C(NC(=O)OCc1ccccc1)C(C)OC(C)(C)C (stereo not shown) | Replicase polyprotein 1ab, main protease (rep, Severe acute respiratory syndrome-related coronavirus, UniProt P0C6X7) | viral replication | – | – | EC50 | 3170 nM |
| CCOc1cccc(NC(=O)CSc2cn(C(=O)OC(C)(C)C)c3ccccc23)c1 | rep nsp12 with nsp14/nsp10 | RdRp reporter activity, inhibitor, Gaussia luciferase reporter | HEK293T | 24 h, with: nsp7, nsp8, nsp10, nsp14 | EC50 | 1700 nM |
| CC[C@H](C)[C@@H]1NC(=O)[C@@H](NC(=O)[C@H](CO)NC(=O)[C@@H](N)CCCNC(=N)N)CSSC[C@@H](C(=O)O)NC(=O)[C@H]([C@@H](C)O)NC(=O)CNC(=O)[C@@H]2CSSC[C@@H]3NC(=O)[C@H](CCC(N)=O)NC(=O)[C@H](Cc4ccccc4)NC(=O)[C@H](C)NC(=O)[C@H]([C@@H](C)O)NC(=O)[C@H](CSSC[C@H](NC(=O)[C@H](Cc4ccccc4)NC(=O)[C@H](CO)NC(=O)[C@H](CC(C)C)NC(=O)[C@H](CCC(N)=O)NC(=O)[C@H](Cc4ccc(O)cc4)NC(=O)[C@H](CCCCN)NC(=O)[C@H](CCSC)NC(=O)[C@H](CO)NC(=O)[C@H](Cc4c[nH]cn4)NC(=O)[C@H](CCCCN)NC3=O)C(=O)N[C@@H](CCCNC(=N)N)C(=O)N[C@@H](CCCCN)C(=O)N[C@@H]([C@@H](C)O)C(=O)N2)NC(=O)[C@H](CCCNC(=N)N)NC(=O)[C@H](CO)NC(=O)[C@H](CCCCN)NC(=O)[C@@H]2CCCN2C(=O)[C@H]([C@@H](C)CC)NC(=O)[C@H]([C@@H](C)O)NC(=O)[C@H](CC(=O)O)NC1=O | Potassium voltage-gated channel subfamily A member 3 (KCNA3, Homo sapiens, UniProt P22001) | potassium current, inhibitor, two-electrode voltage clamp | Xenopus oocytes | – | Ki | 0.034 ± 0.006 nM |
| Cc1ccc(OCCN(C)C)cc1C(=O)N[C@H](C)c1cc(-c2cnn(C)c2)cc(-c2cnn(CCN3CCOCC3)c2)c1 | rep papain-like protease | protease activity, inhibitor, FlipGFP | SARS-CoV-2 | – | EC50 | 2000 ± 400 nM |
| O=C[C@H](C[C@@H]1CCNC1=O)NC(=O)[C@H](CC1CCCCC1)NC(=O)c1cc2ccccc2[nH]1 | Replicase polyprotein 1ab, main protease (rep, Human coronavirus NL63, UniProt P0C6X5) | viral replication | – | – | EC50 | > 20000 nM |
| O=C(NCc1ccccc1)C(N[C@H]1CCSC1=O)C1CC1 (single isomer, unassigned) | Thiosulfate sulfurtransferase (TST, Homo sapiens, UniProt Q16762) | enzyme activity, activator, cyanide to thiocyanate conversion | – | – | EC50 | 32800 ± 900 nM |
| CC(C)C[C@H](NC(=O)OCc1ccccc1)C(=O)N[C@H](C=O)C[C@@H]1CCNC1=O | Replicase polyprotein 1ab, main protease (Bat coronavirus HKU9, UniProt P0C6W5) | viral replication | – | – | EC50 | > 15000 nM |
| Nc1ncnc2c1ncn2C1OC(COP(=O)(O)OP(=O)(O)OP(=O)(O)O)C(O)C1F (stereo not shown) | OPG122 | – | – | – | Ki | > 800 nM |
| Cc1ccc(OCCN(C)C)cc1C(=O)N[C@H](C)c1cc(-c2cnn(CCN3CCOCC3)c2)cc(-c2ccn(C)n2)c1 | rep papain-like protease | protease activity, inhibitor, FlipGFP | SARS-CoV-2 | – | EC50 | 14700 ± 2500 nM |
| Nc1nc(S)c2ncn(C3OC(COP(=O)(O)OP(=O)(O)OP(=O)(O)O)C(O)C3O)c2n1 (stereo not shown) | OPG122 | – | – | – | Ki | > 800 nM |
| CC(C)C[C@H](NC(=O)[C@H](CC(=O)O)NC(=O)[C@H](Cc1ccc(O)cc1)NC(=O)[C@H](CCCCN)NC(=O)[C@@H]1CSSC[C@@H]2NC(=O)[C@H](CCCCN)NC(=O)[C@H](CC(=O)O)NC(=O)[C@H](CC(N)=O)NC(=O)[C@H](CO)NC(=O)[C@@H]3CCCN3C(=O)[C@H](CC(N)=O)NC(=O)[C@@H]3CSSC[C@H](NC(=O)[C@H](C(C)C)NC(=O)[C@H](CC(C)C)NC(=O)[C@H](CO)NC(=O)[C@H](CO)NC(=O)[C@H](CO)NC(=O)[C@H](CCCCN)NC(=O)[C@H](CSSC[C@H](NC(=O)[C@H](C)N)C(=O)N[C@@H](CC(C)C)C(=O)NCC(=O)N[C@@H](Cc4ccccc4)C(=O)NCC(=O)N[C@@H](CCC(=O)O)C(=O)N[C@@H](CCCCN)C(=O)N3)NC2=O)C(=O)N[C@@H](CO)C(=O)N[C@@H](CCC(N)=O)C(=O)N[C@@H](C)C(=O)N[C@@H](Cc2c[nH]cn2)C(=O)N[C@@H](CCCCN)C(=O)N[C@@H](Cc2c[nH]c3ccccc23)C(=O)N1)C(=O)O | Sodium channel protein type 9 subunit alpha (SCN9A, Homo sapiens, UniProt Q15858) | ion current, inhibitor, patch clamp | – | – | IC50 | 4070 nM |

For quick reference, copied from above:
| SMILES | target | assay | test system | conditions | quantity | value |
| --- | --- | --- | --- | --- | --- | --- |
| CC(C)C[C@H](NC(=O)OCc1ccccc1)C(=O)N[C@H](C=O)C[C@@H]1CCNC1=O | Replicase polyprotein 1ab, main protease (Bat coronavirus HKU9, UniProt P0C6W5) | viral replication | – | – | EC50 | > 15000 nM |
